Experimental data from different studies.
Each line is one published result; not all experiments were run side by side. ± marks the error that the study gave.

Structure (SMILES)	tested on	test	system	conditions	how to read	endpoint	result
O=C(O)c1ccc(/C=C2\SC(=S)N(Cc3cccc(C(F)(F)F)c3)C2=O)cc1	NLR family CARD domain-containing protein 4 (Homo sapiens, UniProt Q9NPP4)	inhibitor		1 µM		ATPase activity	no effect
COc1ccc(-c2cc(C(F)(F)F)nc(NCc3ccc(Cl)cc3)n2)cc1OC	GLP1R (Homo sapiens, UniProt P43220)	affinity cooperativity, allosteric modulator	HEK-293T overexpressing GLP1R	with: GLP-1		cooperativity factor alpha	3 to 5
CC(C)C[C@H](NC(=O)CN)C(=O)N[C@@H](CO)C(=O)N[C@@H](Cc1ccccc1)C(=O)N[C@@H](C)C(=O)N[C@@H](Cc1ccccc1)C(=O)N1CCC[C@H]1C(=O)N[C@@H](C)C(=O)N[C@@H](CCCCN)C(=O)N[C@@H](CC(=O)O)C(=O)N[C@@H](C)C(=O)N[C@@H](CCC(=O)O)C(=O)N[C@@H](CC(N)=O)C(=O)N[C@@H](C)C(=O)N[C@@H](CO)C(=O)N[C@@H](CO)C(=O)N1CCC[C@H]1C(=O)N[C@H](C(=O)O)C(C)C	Peptide cyclase 1 (Gypsophila vaccaria, UniProt R4P353, S562A)	ITC		concentration not given, pH 8.0, 25 °C		binding stoichiometry	1
O=c1c(Cl)c(Cl)cnn1Cc1ccccc1Cl	P4HB (Homo sapiens, UniProt P07237)	insulin reductase activity, inhibitor				highest concentration without inhibition	> 100 µM
CCOCCNC(=O)N1CCC[C@H](c2n[nH]c(-c3ccccc3)n2)C1	Aromatase (CYP19A1, Homo sapiens, UniProt P11511)	enzyme activity, inhibitor, MFC to HFC conversion		5 µM, with: MFC substrate		apparent Km	38 µM
O=C(Nc1nc2ccccc2s1)C1CCN(S(=O)(=O)c2ccc(F)c(Cl)c2)CC1	Napepld (Mus musculus, UniProt Q8BH82)	LC-MS/MS		10 or 20 µM, 90 min, with: NOPE substrate		OEA/NOPE ratio	no effect
Nc1ncnc2c1ncn2[C@@H]1O[C@H](COP(=O)(O)OP(=O)(O)OP(=O)(O)O)[C@@H](O)[C@H]1O	MAT2A (Homo sapiens, UniProt P31153)	substrate		200 µM, 25 °C, enzyme 5 µM, no methionine		ATPase rate	0.0018 ± 9e-05 s⁻¹
CCCCCCCCCSc1nc2c([nH]1)c(=O)n(C)c(=S)n2C	Androgen receptor (AR, Homo sapiens, UniProt P10275)	reporter gene, antagonist, PSA-luciferase	HeLa-A6	10 µM, 24 h, with: 5 nM dihydrotestosterone	relative to: maximal activity	remaining activity	123%
CCc1nc2cc3ccccc3cc2cc1C(=O)N1CCC[C@H]1C(=O)N[C@@H](C/C=C/C[C@H](NC(=O)[C@@H]1CCCN1C(=O)c1cc2cc3ccccc3cc2nc1CC)C(=O)N[C@@H](CCCCN)C(=O)NCCCN)C(=O)N[C@@H](CCCCN)C(=O)NCCCN	(CUG)10 RNA	SPR				residence time	483 s
O=C(O)C1OC(OC2C(C(=O)O)OC(OC3C(C(=O)O)OC(OC4C(C(=O)O)OC(OC5C(C(=O)O)OC(OC6C(C(=O)O)OC(O)C(O)C6O)C(O)C5O)C(O)C4O)C(O)C3O)C(O)C2O)C(O)C(O)C1O (stereo not shown)	Beta-lactoglobulin (LGB, Bos taurus, UniProt P02754, A134V/G80D)	isothermal titration calorimetry	50 mM KH2PO4	concentration not given, pH 4.00, 37 °C		binding enthalpy	-6.931 ± 0.0239 kcal/mol
CC[C@H](C)[C@H](NC(=O)CNC(C)=O)C(=O)N[C@@H](CCCNC(=N)N)C(=O)N[C@@H](CCC(=O)O)C(=O)N[C@@H](C)C(=O)N[C@H](C(=O)N[C@@H](CC(C)C)C(=O)N[C@@H](CCCNC(=N)N)C(=O)N[C@@H](C)C(=O)N[C@@H](Cc1c[nH]c2ccccc12)C(=O)N[C@@H](CCC(=O)O)C(=O)N[C@@H](CCCNC(=N)N)C(=O)N[C@@H](CCCNC(=N)N)C(=O)N[C@@H](Cc1ccc(O)cc1)C(=O)NCC(=O)N[C@@H](Cc1ccccc1)C(=O)N1CCC[C@H]1C(=O)N[C@@H](CCCNC(=N)N)C(=O)N1CCC[C@H]1C(=O)N[C@@H](CC(C)C)C(=O)N[C@@H](CCCNC(=N)N)C(=O)N[C@@H](CO)C(=O)N[C@@H](CCC(=O)O)C(N)=O)[C@@H](C)O	Antirepressor protein CarS (carS, Myxococcus xanthus, UniProt Q06911)	ITC		pH 7.5, 25 °C		ΔH	-8.46 ± 0.13 kcal/mol
Clc1ccccc1C(Nc1ncccn1)(c1ccccc1)c1ccccc1	Gap junction alpha-8 protein (Gja8, Mus musculus, UniProt P28236)		N2a	10 µM		activity	active
CC1=C(O)C(=O)C=C2C1=CC=C1[C@@]2(C)CC[C@@]2(C)[C@@H]3C[C@](C)(C(=O)NCCOCCOCCOCCOCC(=O)N[C@H](C(=O)N4C[C@H](O)C[C@H]4C(=O)N[C@@H](C)c4ccc(-c5scnc5C)cc4)C(C)(C)C)CC[C@]3(C)CC[C@]12C	Nuclear receptor subfamily 4 group A member 1 (Nr4a1, Mus musculus, UniProt P12813)	degrader	mouse, MC-38 tumour model, tumour	concentration not given		duration of degradation	≥ 4 days
CC(C)=CCCC(C)=CCc1cc(-c2coc3cc(OC4OC(C(=O)O)C(O)C(O)C4O)ccc3c2=O)ccc1O (stereo not shown)		glucuronidation, substrate	rabbit liver microsomes			substrate inhibition Ki	11.1 ± 1.67 µM
CNc1ccccc1C(=O)O[C@H]1C[C@H](n2cnc3c(N)ncnc32)O[C@@H]1COP(=O)(O)OP(=O)(O)O	Unconventional myosin-Va (Gallus gallus, UniProt Q02440, D297C/G292C/I296C/S293C/V295G)	stopped-flow FRET		15 °C, with: EDTA 4 mM		association rate constant	4.14e+06 ± 380000 M⁻¹ s⁻¹
COc1cccc(C(=O)N[C@H]2[C@@H](O)[C@@H](CO)O[C@@H](S[C@@H]3O[C@H](CO)[C@H](O)[C@H](NC(=O)c4cccc(OC)c4)[C@H]3OS(=O)(=O)O)[C@@H]2O)c1	Galectin-3 (LGALS3, Homo sapiens, UniProt P17931)	ITC		pH 7.2, 4% DMSO		ΔG	-9.536 ± 0.0239 kcal/mol
[64Cu+2].c1cnc(CNCc2ccc(CN3CCCN4CCNCCCN(CC4)CC3)cc2)nc1	CXCR4		NOD/SCID mouse, U87 and U87-stb-CXCR4 xenografts	iv, 90 min, no blocking dose	relative to: U87 tumour over blood	tumour-to-tissue ratio	4.13 ± 1.8
CN[C@@H](C)C(=O)N[C@H]1CCCCNC(=O)[C@H](Cc2ccccc2)NC(=O)[C@@H]2CCCN2C(=O)[C@@H](NC(=O)[C@H](C)NC)CCCCNC(=O)[C@H](Cc2ccccc2)NC(=O)[C@@H]2CCCN2C1=O	E3 ubiquitin-protein ligase XIAP, linker-BIR2-BIR3 (XIAP, Homo sapiens, UniProt P98170)	binding, fluorescence polarization		BIR2-BIR3 protein		Hill slope	~0.4
N=C(N)NCCC[C@@H]1NC(=O)[C@H](CCCCNC(=O)CNC(=O)CNC(=O)CNC(=O)CC[C@H](NC(=O)CNC(=O)CNC(=O)CNC(=O)CN2CCN(CC(=O)O)CCN(CC(=O)O)CCN(CC(=O)O)CC2)C(=O)NCC(=O)NCC(=O)NCC(=O)NCCCC[C@@H]2NC(=O)[C@@H](Cc3ccccc3)NC(=O)[C@H](CC(=O)O)NC(=O)CNC(=O)[C@H](CCCNC(=N)N)NC2=O)NC(=O)[C@@H](Cc2ccccc2)NC(=O)[C@H](CC(=O)O)NC(=O)CNC1=O [indium-111 labelled]			female athymic nu/nu mice, intestine	intravenous, 4 h		tissue uptake	5.09 ± 1.75 %ID/g
CN[C@@H](C)C(=O)N[C@H]1CN(C(=O)Cc2ccccc2)CC[C@H]2CC[C@@H](C(=O)NCc3ccc(C(C)C)cc3)N2C1=O	E3 ubiquitin-protein ligase XIAP, BIR3 domain with caspase-9 (XIAP, Homo sapiens, UniProt P98170)	antagonist		50 µM, BIR3 domain		caspase-9 activity restored	23%
CC(C)C[C@H](NC(=O)[C@H](Cc1ccc(O)cc1)NC(=O)[C@@H](CCCNC(=N)N)NC(=O)[C@@H](CO)NC(=O)[C@H](Cc1ccccc1)NC(=O)[C@H](CC1CCCCC1)NC(=O)[C@H](CC(=O)O)NC(=O)CN1CCN(CC(=O)O)CCN(CC(=O)O)CCN(CC(=O)O)CC1)C(=O)N[C@@H](Cc1c[nH]c2ccccc12)C(=O)N[C@@H](CO)C(N)=O	Urokinase plasminogen activator surface receptor (Homo sapiens, UniProt Q03405)	binding, SPR				kon	460000 M⁻¹ s⁻¹
C=CCC1NC(=O)C=CC(=O)NC(C(N)=O)CCNC(=O)C(CCCNC(=O)c2cnccn2)NC(=O)C(Cc2ccco2)NC1=O (stereo not shown)	ERBB4 (Homo sapiens, UniProt Q15303)	DNA-templated library selection		one selection round		enrichment factor	0.91
CC(C)(C)CCN1C[C@@H]2[C@@H](CNC(=O)c3cc(Cl)cc(Cl)c3)[C@@H]2C1.Cl	Voltage-dependent L-type calcium channel subunit alpha-1F (Homo sapiens, UniProt O60840)	calcium current, whole-cell patch clamp	HEK-293T cells	50 nM, holding potential -50 mV, with: β2 and α2δ subunits		half-activation voltage	1.04 ± 1.6 mV
CC(=O)N1CCC[C@H]1C(=O)N[C@@H](CC(C)C)C(=O)N[C@@H](Cc1c[nH]cn1)C(=O)N[C@@H](CO)C(=O)N[C@H](C(N)=O)[C@@H](C)OP(=O)(O)O	Plk2 polo-box domain, human	isothermal titration calorimetry		concentration not given		binding	no binding
N#Cc1cnc(Nc2nc3ccccc3o2)nc1-c1ccc(Br)cc1	Grm5 (Rattus norvegicus, UniProt P31424)	calcium mobilization, negative allosteric modulator		with: glutamate EC80	relative to: maximal glutamate response	maximal response	3.8 ± 1.2%
CC(C)(Sc1nc2ncccc2n1Cc1ccc(Br)c2ccccc12)C(=O)O	SLC22A12 (Homo sapiens, UniProt Q96S37)		HEK293T transfected	non-competitive model fit, with: [14C]urate		Vmax urate uptake	2520 pmol/min/mg
CCCN(CC(=O)N(CCC)CC(=O)N(CC(N)=O)Cc1cn(CCCNC(=O)CCCOc2cccc(-c3nc4ccc(-c5nc6ccc(N7CCN(C)CC7)cc6[nH]5)cc4[nH]3)c2)nn1)C(=O)CNCc1cn(CCCNC(=O)CCCOc2cccc(-c3nc4ccc(-c5nc6ccc(N7CCN(C)CC7)cc6[nH]5)cc4[nH]3)c2)nn1	MBNL1–r(CUG)109 complex	MBNL1 displacement	0.65 pmol r(CUG)109	unit not given, with: yeast tRNA 3.7 µM	relative to: monomer 2 IC50 per module	multivalent effect	2.5
O=C([O-])CN1CCN(CC(=O)[O-])CCN(C(CCC(=O)NCCCCCN(CCCC[C@H](NC(=O)N[C@@H](CCC(=O)O)C(=O)O)C(=O)O)C(=O)c2ccc(I)cc2)C(=O)O)CCN(CC(=O)[O-])CC1.[68Ga+3] (stereo partly shown)	FOLH1 (Homo sapiens, UniProt Q04609)	PET/CT	prostate cancer patients, bone metastases	60 min	relative to: lesion SUVmax over muscle SUVmean	mean tumour-to-background ratio	26

Some of these lines once more:
Structure (SMILES)	tested on	test	system	conditions	how to read	endpoint	result
COc1cccc(C(=O)N[C@H]2[C@@H](O)[C@@H](CO)O[C@@H](S[C@@H]3O[C@H](CO)[C@H](O)[C@H](NC(=O)c4cccc(OC)c4)[C@H]3OS(=O)(=O)O)[C@@H]2O)c1	Galectin-3 (LGALS3, Homo sapiens, UniProt P17931)	ITC		pH 7.2, 4% DMSO		ΔG	-9.536 ± 0.0239 kcal/mol
CC(C)=CCCC(C)=CCc1cc(-c2coc3cc(OC4OC(C(=O)O)C(O)C(O)C4O)ccc3c2=O)ccc1O (stereo not shown)		glucuronidation, substrate	rabbit liver microsomes			substrate inhibition Ki	11.1 ± 1.67 µM
CNc1ccccc1C(=O)O[C@H]1C[C@H](n2cnc3c(N)ncnc32)O[C@@H]1COP(=O)(O)OP(=O)(O)O	Unconventional myosin-Va (Gallus gallus, UniProt Q02440, D297C/G292C/I296C/S293C/V295G)	stopped-flow FRET		15 °C, with: EDTA 4 mM		association rate constant	4.14e+06 ± 380000 M⁻¹ s⁻¹
